Results collected from several papers.
Each numbered part is a random draw from the data of one study; scales do not carry over between parts. Changes are numbered by the printed parent chain.

Block 1
Target: RNA binding protein fox-1 homolog 2, RRM domain, GST-SBP tag (RBFOX2, Homo sapiens, UniProt O43251-10, residues 100-194)
Technique: RNA Bind-n-Seq
Form: RNA
Matrix: in vitro
Concentration: 365 nM
Setting: natural RNA segment, single round, ends assumed
Baseline: no-protein control
Reading: higher = stronger binding
Quantity: RBNS enrichment (R)
Shared flanks, not repeated: GGGAGUUCUACAGUCCGACGAUC … UGGAAUUCUCGGGUGCCAA
Target sequence (chain): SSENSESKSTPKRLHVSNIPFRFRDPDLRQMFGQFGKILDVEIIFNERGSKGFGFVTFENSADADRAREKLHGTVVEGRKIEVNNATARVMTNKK
AAGGGAACUAUGCCCUGGGCCAGGGCGAAUGCGUGGCUGGGCAGUGCCCAUCAUGGCAUUUUCACAUGUCCCAUAUGCCCCUCCUGUCUUAUUCCACUGCUUCUCCCAGC: 0.749
UUGAGAAGUAGCAGGGAGCAGGGCAUCUUGGGAGCUGGUAUUGUGCUUGGUCAGAGUAGCUAAGCCCUGGUCUUAGGCCUGAGCCUGGAGUCUGCCCCCAUUUCCUUUUC: 0.633
GAGCGUUAUUAACCCAAAGCAGAACAAUGGUGCCAAUUUGAUUAUUAACUUAAAAAAAUAUACACUGCUUCCCAUAAACUGCUAGUUCAUCUCUCGGUACAAAGGAGUUA: 0.261
AUUUUUAAACAUAACACCUAACCUAACAUGGGUAAGAGAGUAUGGAACUAGAUAUGAGCUGUAUAAGAAGCAUAAUUGUGAACAAGUAGAUUGAUUGCCUUCAUAUACAA: 0.368
ACUGAGAAGAUGUCAGUGGUGCUCGGUUCUGCCAGCUGUCAGCGGGCCCGGCUGUUAGCACCGUGCUGACUUUCCAUUGGAGACUUGAGUUGGAGAGAGGUGGGUCCUAU: 0.28
ACCAUGAAACCUACACUCCCUGGUAUCAUAGCGCGUCAUCACCUCAACAAGUCAGUCGUCUCCAUUGAUAUUUGUACAAAAGGUAUACAUGGGGAACACGUGUUCAUUCA: 0.328
GUCACUGCCUACUGCCUGGGGGCUCUAGUCAUUCCAGUGGAAGACGAAUGUAACCUGCGUGGUGAUGUGACAACUGUUUCCUCCCUGACCCCAGAGGAUCUGGCUCUAGG: 0.245
CAGUCUGAGAGAAGUCUCCUUUGAGAAGGGCCAAGAGGCUCUUUCCUGAGUGUUUGCUUUCGGUUUGUUGGUAUGCCUGUAUUGCUGGGCUGUGCUGCUGCUCGAAGCAG: 3.3
ACAGUCUAUUAAAAUUCAGCCCUAAAAUGACAAAGCCUUCUUAAAGCCUUAUUUUUAAAAUCCCCCAUUCUUGCUCAGAUUAAAAAUUGCCAAAAUACCUUCUGAACUAA: 0.948
AAUUGUACUUUGUUCCAUUGUUAAUUGAGAAACUGUUUCAAUAAAAUAUUCUUUUCUAUAGGUUGUAUGUGUUUGCUUCUUCCCUCCCUUGUUUGUCUGUUUGUUGUGUG: 6.71
CAGUGUUGAGAAUACGGCCUGGUAAAAUGGGAGAUGUAAAAUGACUAAAUGAAAGGAAGGGUAGUUUUAAUGUUGAAGCACCGUGCUGGGCACUGGAGCUACCCAGAGGA: 0.549
GCCAGCGCUUCCUGGAUGAGCCUGCCUCACUAGCCCCGCUUCUCACCCUGCCUGGCAGCCGGGAAGCCUCCAGGCCUGCAGCCAUCAGCAGAACACAGGGAGAUGAUGUG: 0.239

Block 2
Target: Ras GTPase-activating protein-binding protein 1, full length (G3BP1, Homo sapiens, UniProt Q13283)
Chain of UniProt Q13283 (whole entry, looked up): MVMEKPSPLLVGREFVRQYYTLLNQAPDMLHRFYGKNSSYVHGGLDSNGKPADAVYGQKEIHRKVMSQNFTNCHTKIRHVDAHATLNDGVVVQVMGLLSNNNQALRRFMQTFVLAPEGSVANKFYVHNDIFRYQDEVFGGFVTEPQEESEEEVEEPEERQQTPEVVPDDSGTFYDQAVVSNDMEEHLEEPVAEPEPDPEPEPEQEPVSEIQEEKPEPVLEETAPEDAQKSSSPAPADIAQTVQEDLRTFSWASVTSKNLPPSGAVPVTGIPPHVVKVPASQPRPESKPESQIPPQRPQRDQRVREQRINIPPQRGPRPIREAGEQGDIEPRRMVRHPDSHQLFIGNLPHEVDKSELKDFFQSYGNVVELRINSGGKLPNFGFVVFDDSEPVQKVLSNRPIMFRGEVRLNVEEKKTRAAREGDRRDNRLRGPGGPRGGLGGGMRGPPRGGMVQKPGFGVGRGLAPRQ
Technique: RNA Bind-n-Seq
Form: RNA
Matrix: in vitro
Concentration: 200 nM
Setting: whole 134-nt RNA, ends assumed
Added: 150 mM KCl
Baseline: input library
Reading: higher = stronger binding
Quantity: log2 enrichment
Shared flanks, not repeated: GGGAGUUCUACAGUCCGACGAUC … UGGAAUUCUCGGGUGUCAAGG
CUGUGCUACACAUCGUAUGUACCGAAUCGGGGUUUUUUGGGUUUUUUGGGGUUUUUUGGGGAAAGUAUUAUGUUACGCCGUUCGGAUCUG: -0.489
UGGGAGGUGGAUUUUGUUUAUUUUUUUAGCUCAUUUCCAGGGGUGGGAAUUUUUUUUUAAUAUGUGUCAUGAAUAAAGUUGCUUUUGAAA: 0.216
CCUCAAGUCCUGUGCUACACAUCGUAUGUACCGAAUCGGGAGGGGAGGAGGGAAAGUAUUAUGUUACGCCGUUCGGAUCUGCACUUCCAG: 1.07
UGUGCUACACAUCGUAUGUACCGAAUCGGUUUUUUUGGGGUUUUUUUGGGGUUUUUUUGGGGAAAGUAUUAUGUUACGCCGUUCGGAUCU: -0.844
UGGCCCUGGUGGCAUGCGGGGAGGAAGAGGUGGCCUCAUGGAUCGUGGUGGUCUCGGUGGAAUGUUCAGAGGUGGCCGUGGUGGAGACAG: 0.184
UCCUGUGCUACACAUCGUAUGUACCGAAUCGGAAAAAAAGGAAAAAAAGGAAAAAAAGGAAAGUAUUAUGUUACGCCGUUCGGAUCUGCA: -0.567
UCCUGUGCUACACAUCGUAUGUACCGAAUCAAACCCCCCCAAACCCAAAUUUUUUUAAAAAAGUAUUAUGUUACGCCGUUCGGAUCUGCA: 0.0749
AGUCCUGUGCUACACAUCGUAUGUACCGAAUCGGGAAAGGGUUUGGGAAAAAAAGGGAAAGUAUUAUGUUACGCCGUUCGGAUCUGCACU: -0.585
UAACUUUAGAGGAGGAUCUGAUGGAUAUGGCAGUGGACGUGGAUUUGGGGAUGGCUAUAAUGGGUAUCGAGGAGGACCUGGAGGUGGCAA: 0.13
CUGUGCUACACAUCGUAUGUACCGAAUCGGCCCCCCCGGGGCCCCCCCGGGCCCCCCCGGGGAAAGUAUUAUGUUACGCCGUUCGGAUCU: -1.76
UCCUGUGCUACACAUCGUAUGUACCGAAUCGGGGAGGGGUUUUUUUGGGGAAAAAGGGGAAAGUAUUAUGUUACGCCGUUCGGAUCUGCA: 0.607
AAGUCCUGUGCUACACAUCGUAUGUACCGAAUCGGUUUUUUUGGUUUUUGGAAAGGAAAGUAUUAUGUUACGCCGUUCGGAUCUGCACUU: -1.56
UAACUUUAGAGGAAGAUCUGAUGGAUAUGGCAGUGGACGUGGAUUUGGGGAUGGCUAUAAUGGGUAUGGAGGAGGACCUGGAGGUGGCAA: 0.428

Block 3
Target: Hepatocyte nuclear factor 3-alpha (Foxa1, Mus musculus, UniProt P35582, residues 1-468, full length assumed)
Technique: EMSA with sequencing
Form: double-stranded DNA, one strand shown
Matrix: in vitro
Concentration: 10 and 20 nM
Setting: whole designed probe, mean of two concentrations, ends assumed
Baseline: negative control set to 0
Reading: higher = stronger binding
Quantity: normalised bound fraction
Shared flanks, not repeated: GTGAGCGGTGCCCATTGATGGGGAAC … TTTCACTGGGATCGTGGGGAC
Construct (chain): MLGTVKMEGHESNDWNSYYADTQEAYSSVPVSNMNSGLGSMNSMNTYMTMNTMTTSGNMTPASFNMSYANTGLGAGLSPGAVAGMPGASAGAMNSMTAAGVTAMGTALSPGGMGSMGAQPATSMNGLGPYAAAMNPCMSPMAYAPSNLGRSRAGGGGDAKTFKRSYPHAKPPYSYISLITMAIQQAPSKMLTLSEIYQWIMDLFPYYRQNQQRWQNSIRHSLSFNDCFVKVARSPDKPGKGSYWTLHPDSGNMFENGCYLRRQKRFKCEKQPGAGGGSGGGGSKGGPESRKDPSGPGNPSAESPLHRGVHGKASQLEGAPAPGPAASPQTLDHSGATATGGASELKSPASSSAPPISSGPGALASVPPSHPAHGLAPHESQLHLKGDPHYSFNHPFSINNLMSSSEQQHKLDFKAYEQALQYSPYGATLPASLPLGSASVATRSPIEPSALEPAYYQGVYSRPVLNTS
TATTATGAGCTGGACCTTGCTTAGCCCCAGCTGGGTTCTTGCTTCCCATCCTCCTCCCTGCCTGCTGCTTCCCTGAGTCATGCCCACTGCAATGTAATTTACAGGGCAGCTCCTAGGAGCTTGCAATGACAGCAATAGTGGGAGGAACAAGAGGGAAGGGAGCAACTGTTTTGTTTTGTTCGAAATGGTGTCT: -0.052 ratio
GTAAAAACTTATTACTAATCATTGTTTCTCAATTTTGACTTAAGGGCTATTTGTTCAGAATAAAATATATGGAACTAAGGCCAAGAATTTGTATGTTTACCTAATGTGACTTGTGTTTGCCAATGTTTGAGAACCTCAGTGTTTGTCAAGAGGCCTAGGAATTCATAAACATAACAAAAGTAACTGGCTTTAC: 0.405 ratio
GAGTGAGATTTTAATCTTTGACACTCTACAGCAAGTTGAAGGGGTAGTATATGAGTGAGGCTGACATGAGAAGTTTCTCATGATAAGTTTCTCATGTTTACTTAGTTTCCCAGCTATAAAAACCAAAGAAAAGAAGGCCATATTAAGTATTAGTATAGATTTCCATAAATATAATAAGGATCTATTATTATTA: 0.411 ratio
ATATACCTTTATTGCATATTAACAATTTCATAATGTGTCAAATTTATCCCAAACTTCTAGCTAAAATCTTTAAGAGTGCTGTTAAAGATAATGTAAACAAGCACTATTTTCTTTACTTAGCGAACAAGATTGGCCGAGTAATGTCAATTATTTTGCAACATGTTCCATTAATCAGTATACATTAAGTATCACT: 0.308 ratio
ATGAAGGGCTGCCAGTGTAATTTGAACCTCAAATAAACAACAGATAAAACTGTAGTATAAGTATGTCCCATATATTGCACAACACGATCTTTTTGTTTGCCTAATCTGGCAAAGATATTGACTTAACACACACTAATCTGTTGACAGGTAGGTGAAATATTTGAACTTCTACGTTGCTTCTCTAATCCTGTCC: 0.391 ratio

Block 4
Target: Prothrombin, mature alpha-thrombin (F2, Homo sapiens, UniProt P00734)
Technique: aptamer microarray, sandwich
Form: DNA with 2'F-ANA
Matrix: in vitro
Concentration: 200 nM
Setting: whole 15-mer aptamer, many near background
Added: Cy3 exosite-II aptamer, 400 nM
Reading: higher = stronger binding
Quantity: mean fluorescence intensity
Strand: GGTTGGTGTGGTTGG
2'F-ANA at 3 6 10 11 12 15: 577 a.u.
2'F-ANA at 3 6 7 9 12 13 14: 520 a.u.
2'F-ANA at 3 6 7 11 12 13 14: 505 a.u.
2'F-ANA at 1 2 5 6 7 8 9 10 12 13: 53.5 a.u.
2'F-ANA at 1 3 4 9 10 11 12 13: 69.3 a.u.
2'F-ANA at 1 2 4 5 6 7 8 12 13: 82.2 a.u.
2'F-ANA at 2 4 5 7 8 9 10 11 13 15: 51 a.u.
2'F-ANA at 3 4 6 7 10 11 13 14: 167 a.u.
2'F-ANA at 3 4 6 10 11 13 14 15: 147 a.u.
2'F-ANA at 1 2 3 4 5 6 7 9 12 13 14: 45.6 a.u.
2'F-ANA at 1 2 4 7 8 13 15: 101 a.u.
2'F-ANA at 5 13 14: 45.2 a.u.
2'F-ANA at 3 5 6 7 8 10 11 13 14: 50.7 a.u.
2'F-ANA at 1 2 5 10 11 15: 45 a.u.
2'F-ANA at 3 8 13 14: 612 a.u.
2'F-ANA at 1 6 10 12 15: 118 a.u.
2'F-ANA at 1 2 3 4 5 6 7 8 9 10 14: 48.6 a.u.
2'F-ANA at 1 2 3 4 6 8 9 11 12 13: 192 a.u.
2'F-ANA at 1 2 5 6 7 10 13 14: 50.6 a.u.

Block 5
Target: CCNB3, cyclin fold, Cln2 fusion (human)
Technique: yeast growth competition, sequencing
Matrix: yeast
Setting: strong parent motif
Baseline: not given
Reading: higher = stronger binding
Quantity: normalised enrichment score
Starting sequence: PKN2 docking peptide (human); VSAVRKLDFSDTM; partner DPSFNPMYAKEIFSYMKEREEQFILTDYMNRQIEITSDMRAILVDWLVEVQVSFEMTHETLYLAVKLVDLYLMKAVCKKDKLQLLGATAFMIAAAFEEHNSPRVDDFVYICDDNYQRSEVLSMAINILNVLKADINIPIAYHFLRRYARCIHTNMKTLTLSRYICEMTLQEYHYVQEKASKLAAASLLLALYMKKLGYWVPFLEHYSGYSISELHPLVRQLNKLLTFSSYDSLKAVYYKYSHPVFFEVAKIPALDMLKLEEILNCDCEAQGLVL
T12M: 1.88
D8H: 1.02
D11M: 1.95
S10F: 0.505
F9M: 0.244
R5F: 0.425
S10L: 0.734
F9I: 0.154
S10R: 1.05
K6S: 0.54
S2Q: 1.5
D11Q: 2.03
L7N: -0.0667
F9R: 0.0908
D8N: 1.48

A few entries again (block 4):
2'F-ANA at 3 6 10 11 12 15: 577 a.u.
2'F-ANA at 3 5 6 7 8 10 11 13 14: 50.7 a.u.
2'F-ANA at 5 13 14: 45.2 a.u.
2'F-ANA at 1 2 3 4 5 6 7 9 12 13 14: 45.6 a.u.
